Published values from different studies.
A part holds a random share of what one study measured.
UniProt O75582, sequence (whole entry, looked up): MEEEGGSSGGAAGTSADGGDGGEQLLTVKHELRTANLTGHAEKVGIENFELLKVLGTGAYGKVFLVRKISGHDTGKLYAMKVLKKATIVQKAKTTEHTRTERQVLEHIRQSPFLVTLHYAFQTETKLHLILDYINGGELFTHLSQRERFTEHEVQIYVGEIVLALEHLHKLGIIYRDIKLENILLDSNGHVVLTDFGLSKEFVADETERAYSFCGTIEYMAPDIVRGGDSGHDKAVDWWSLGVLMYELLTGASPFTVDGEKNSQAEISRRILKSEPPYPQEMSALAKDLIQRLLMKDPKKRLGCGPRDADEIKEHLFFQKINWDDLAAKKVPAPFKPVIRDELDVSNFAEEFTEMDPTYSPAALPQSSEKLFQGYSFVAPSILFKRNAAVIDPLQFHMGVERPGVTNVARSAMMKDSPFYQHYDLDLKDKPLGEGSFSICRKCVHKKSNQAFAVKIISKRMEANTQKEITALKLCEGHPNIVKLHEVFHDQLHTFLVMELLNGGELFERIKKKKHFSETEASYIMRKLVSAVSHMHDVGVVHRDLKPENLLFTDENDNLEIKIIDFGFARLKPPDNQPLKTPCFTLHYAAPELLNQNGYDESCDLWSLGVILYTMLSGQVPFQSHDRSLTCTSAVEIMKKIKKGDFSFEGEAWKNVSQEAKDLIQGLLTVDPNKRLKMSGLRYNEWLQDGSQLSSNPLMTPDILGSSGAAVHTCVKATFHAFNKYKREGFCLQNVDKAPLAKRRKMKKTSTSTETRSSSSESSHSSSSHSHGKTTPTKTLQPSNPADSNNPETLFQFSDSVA
UniProt O15530, sequence (whole entry, looked up): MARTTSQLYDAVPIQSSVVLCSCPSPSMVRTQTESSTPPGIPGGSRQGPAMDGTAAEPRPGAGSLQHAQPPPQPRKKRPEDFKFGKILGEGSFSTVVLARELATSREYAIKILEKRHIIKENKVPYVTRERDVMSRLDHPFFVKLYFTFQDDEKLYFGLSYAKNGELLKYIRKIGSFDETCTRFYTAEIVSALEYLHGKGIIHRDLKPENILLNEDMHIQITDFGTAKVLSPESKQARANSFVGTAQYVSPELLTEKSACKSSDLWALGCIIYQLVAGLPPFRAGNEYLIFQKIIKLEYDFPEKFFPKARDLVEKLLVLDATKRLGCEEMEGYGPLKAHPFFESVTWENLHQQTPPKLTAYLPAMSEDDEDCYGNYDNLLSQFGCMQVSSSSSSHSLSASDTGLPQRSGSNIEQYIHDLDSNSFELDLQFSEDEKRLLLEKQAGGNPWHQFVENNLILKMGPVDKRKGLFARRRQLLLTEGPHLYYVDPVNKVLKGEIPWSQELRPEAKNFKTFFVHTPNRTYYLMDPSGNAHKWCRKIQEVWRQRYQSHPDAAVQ
UniProt Q13523, sequence (whole entry, looked up): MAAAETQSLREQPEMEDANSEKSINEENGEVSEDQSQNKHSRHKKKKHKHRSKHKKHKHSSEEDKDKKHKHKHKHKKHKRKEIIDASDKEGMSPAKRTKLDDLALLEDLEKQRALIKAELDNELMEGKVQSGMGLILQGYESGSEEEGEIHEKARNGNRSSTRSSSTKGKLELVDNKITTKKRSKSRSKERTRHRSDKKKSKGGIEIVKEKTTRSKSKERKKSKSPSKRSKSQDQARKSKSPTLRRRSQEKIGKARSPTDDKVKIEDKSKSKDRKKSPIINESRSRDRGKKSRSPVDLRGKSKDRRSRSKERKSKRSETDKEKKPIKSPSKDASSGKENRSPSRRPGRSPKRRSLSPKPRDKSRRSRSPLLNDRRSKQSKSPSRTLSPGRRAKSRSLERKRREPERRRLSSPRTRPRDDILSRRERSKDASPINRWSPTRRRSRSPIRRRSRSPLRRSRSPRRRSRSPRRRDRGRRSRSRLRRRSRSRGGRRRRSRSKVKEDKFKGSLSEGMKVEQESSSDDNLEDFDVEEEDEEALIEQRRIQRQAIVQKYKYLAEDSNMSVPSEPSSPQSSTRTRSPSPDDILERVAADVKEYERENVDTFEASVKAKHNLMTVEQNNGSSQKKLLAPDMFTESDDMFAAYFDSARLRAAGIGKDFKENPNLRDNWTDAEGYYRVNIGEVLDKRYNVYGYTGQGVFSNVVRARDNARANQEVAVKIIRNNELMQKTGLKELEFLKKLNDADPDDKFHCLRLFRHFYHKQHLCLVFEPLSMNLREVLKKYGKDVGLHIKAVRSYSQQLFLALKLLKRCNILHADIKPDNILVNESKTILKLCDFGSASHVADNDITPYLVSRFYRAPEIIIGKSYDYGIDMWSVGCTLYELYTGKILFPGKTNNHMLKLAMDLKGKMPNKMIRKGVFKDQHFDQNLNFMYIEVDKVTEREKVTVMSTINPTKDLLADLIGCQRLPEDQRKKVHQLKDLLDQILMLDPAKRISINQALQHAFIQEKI
UniProt P54764, sequence (whole entry, looked up): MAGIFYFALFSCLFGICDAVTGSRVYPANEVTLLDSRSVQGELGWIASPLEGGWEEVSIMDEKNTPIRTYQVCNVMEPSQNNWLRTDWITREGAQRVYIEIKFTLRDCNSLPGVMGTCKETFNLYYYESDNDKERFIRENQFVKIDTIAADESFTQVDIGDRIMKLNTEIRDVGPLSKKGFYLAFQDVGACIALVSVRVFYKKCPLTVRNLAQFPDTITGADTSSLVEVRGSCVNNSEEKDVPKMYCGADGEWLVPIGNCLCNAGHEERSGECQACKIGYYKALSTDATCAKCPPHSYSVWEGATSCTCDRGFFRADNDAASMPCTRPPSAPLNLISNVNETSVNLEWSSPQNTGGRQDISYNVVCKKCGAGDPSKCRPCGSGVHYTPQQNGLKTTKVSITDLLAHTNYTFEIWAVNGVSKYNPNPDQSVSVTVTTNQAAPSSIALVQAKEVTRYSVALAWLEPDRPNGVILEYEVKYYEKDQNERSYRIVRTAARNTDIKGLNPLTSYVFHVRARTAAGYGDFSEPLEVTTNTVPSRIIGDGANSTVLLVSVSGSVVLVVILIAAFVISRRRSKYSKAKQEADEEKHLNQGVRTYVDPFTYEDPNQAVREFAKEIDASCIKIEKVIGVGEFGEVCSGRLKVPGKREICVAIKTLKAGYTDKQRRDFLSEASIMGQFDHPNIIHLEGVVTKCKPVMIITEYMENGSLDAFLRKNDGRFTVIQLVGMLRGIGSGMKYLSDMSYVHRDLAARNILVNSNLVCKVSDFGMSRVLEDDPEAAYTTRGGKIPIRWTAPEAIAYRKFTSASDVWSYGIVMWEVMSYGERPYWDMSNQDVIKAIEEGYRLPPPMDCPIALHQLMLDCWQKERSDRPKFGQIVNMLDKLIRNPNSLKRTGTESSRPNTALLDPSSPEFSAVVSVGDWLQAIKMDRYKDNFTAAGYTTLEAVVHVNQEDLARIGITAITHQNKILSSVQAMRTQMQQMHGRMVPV
UniProt P57059, sequence (whole entry, looked up): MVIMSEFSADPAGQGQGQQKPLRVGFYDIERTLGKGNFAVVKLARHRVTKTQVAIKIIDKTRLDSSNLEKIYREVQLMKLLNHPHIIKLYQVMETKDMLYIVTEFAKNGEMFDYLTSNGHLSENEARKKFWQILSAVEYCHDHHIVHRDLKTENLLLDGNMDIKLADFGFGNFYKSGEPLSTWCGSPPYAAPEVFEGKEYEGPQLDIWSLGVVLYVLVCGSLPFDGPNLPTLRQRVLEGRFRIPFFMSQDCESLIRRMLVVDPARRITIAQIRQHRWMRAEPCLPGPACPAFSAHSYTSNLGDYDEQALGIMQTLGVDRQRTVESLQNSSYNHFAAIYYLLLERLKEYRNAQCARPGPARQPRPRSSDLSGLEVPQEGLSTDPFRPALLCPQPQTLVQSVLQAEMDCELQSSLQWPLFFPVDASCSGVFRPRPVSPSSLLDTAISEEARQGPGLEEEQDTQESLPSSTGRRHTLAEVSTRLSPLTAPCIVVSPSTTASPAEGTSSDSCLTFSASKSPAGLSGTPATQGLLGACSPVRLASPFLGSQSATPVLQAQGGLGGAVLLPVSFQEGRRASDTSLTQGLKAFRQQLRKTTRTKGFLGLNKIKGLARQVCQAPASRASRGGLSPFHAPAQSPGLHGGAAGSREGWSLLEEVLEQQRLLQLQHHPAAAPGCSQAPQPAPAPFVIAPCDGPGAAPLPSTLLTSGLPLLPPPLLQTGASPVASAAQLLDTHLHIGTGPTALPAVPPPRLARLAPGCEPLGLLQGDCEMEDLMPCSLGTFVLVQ
UniProt Q09013, sequence (whole entry, looked up): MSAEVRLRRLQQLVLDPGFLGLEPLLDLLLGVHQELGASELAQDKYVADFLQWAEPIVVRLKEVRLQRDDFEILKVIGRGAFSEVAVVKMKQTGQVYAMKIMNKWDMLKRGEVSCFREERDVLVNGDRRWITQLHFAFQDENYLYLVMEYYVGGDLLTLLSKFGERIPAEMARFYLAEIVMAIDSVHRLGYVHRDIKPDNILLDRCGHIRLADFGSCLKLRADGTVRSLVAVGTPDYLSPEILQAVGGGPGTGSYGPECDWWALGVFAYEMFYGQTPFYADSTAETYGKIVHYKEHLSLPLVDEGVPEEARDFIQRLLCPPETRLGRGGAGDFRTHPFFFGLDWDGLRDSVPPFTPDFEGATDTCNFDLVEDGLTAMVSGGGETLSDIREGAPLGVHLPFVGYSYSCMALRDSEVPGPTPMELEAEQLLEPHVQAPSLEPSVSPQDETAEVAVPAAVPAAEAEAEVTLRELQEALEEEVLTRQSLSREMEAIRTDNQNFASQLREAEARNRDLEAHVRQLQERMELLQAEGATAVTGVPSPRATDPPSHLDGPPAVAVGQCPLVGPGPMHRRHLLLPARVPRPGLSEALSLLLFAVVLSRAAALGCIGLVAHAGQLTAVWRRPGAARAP
UniProt P11802, sequence (whole entry, looked up): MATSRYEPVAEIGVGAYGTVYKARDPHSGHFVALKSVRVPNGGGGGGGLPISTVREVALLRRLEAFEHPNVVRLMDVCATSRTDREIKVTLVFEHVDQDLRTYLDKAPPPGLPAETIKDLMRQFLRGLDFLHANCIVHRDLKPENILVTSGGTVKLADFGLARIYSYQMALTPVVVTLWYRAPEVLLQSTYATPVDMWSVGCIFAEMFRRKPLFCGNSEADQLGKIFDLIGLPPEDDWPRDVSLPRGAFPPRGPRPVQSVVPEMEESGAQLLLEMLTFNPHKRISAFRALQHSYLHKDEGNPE

Study 1
Structure (SMILES): C[C@@H](c1cccc(C#N)c1)n1cc(Cl)cc(C(N)=O)c1=N
Tested at: 1 µM
Ribosomal protein S6 kinase alpha-5, C-terminal kinase domain (RPS6KA5, Homo sapiens, UniProt O75582); cell-free assay, competition with immobilised ligand — remaining binding: 74%.
It gave 100% for remaining binding (Cyclin-dependent kinase 19 (CDK19, Homo sapiens, UniProt Q9BWU1); competition binding).
For Serine/threonine-protein kinase SBK1 (SBK1, Homo sapiens, UniProt Q52WX2); cell-free assay, competition with immobilised ligand: remaining binding read 99%.
It gave 100% for remaining binding (Mitogen-activated protein kinase kinase kinase 13 (MAP3K13, Homo sapiens, UniProt O43283); cell-free assay, competition with immobilised ligand).
For Serine/threonine-protein kinase PRP4 homolog (PRPF4B, Homo sapiens, UniProt Q13523); cell-free assay, competition with immobilised ligand: remaining binding read 100%.
For Receptor-type tyrosine-protein kinase FLT3 (FLT3, Homo sapiens, UniProt P36888, D835Y); cell-free assay, competition with immobilised ligand: remaining binding read 97%.
Serine/threonine-protein kinase SIK1 (SIK1, Homo sapiens, UniProt P57059); competition binding — remaining binding: 96%.
The remaining binding was 100% (Myotonin-protein kinase (DMPK, Homo sapiens, UniProt Q09013); cell-free assay, competition with immobilised ligand).
For Serine/threonine-protein kinase BRSK1 (BRSK1, Homo sapiens, UniProt Q8TDC3); cell-free assay, competition with immobilised ligand: remaining binding read 93%.
For Serine/threonine-protein kinase 17B (STK17B, Homo sapiens, UniProt O94768); cell-free assay, competition with immobilised ligand: remaining binding read 72%.
For Proto-oncogene tyrosine-protein kinase receptor Ret (RET, Homo sapiens, UniProt P07949, M918T); cell-free assay, competition with immobilised ligand: remaining binding read 100%.
For Mitogen-activated protein kinase 8 (MAPK8, Homo sapiens, UniProt P45983); cell-free assay, competition with immobilised ligand: remaining binding read 75%.
Ephrin type-A receptor 6 (EPHA6, Homo sapiens, UniProt Q9UF33); cell-free assay, competition with immobilised ligand — remaining binding: 91%.
For Platelet-derived growth factor receptor beta (PDGFRB, Homo sapiens, UniProt P09619); cell-free assay, competition with immobilised ligand: remaining binding read 84%.
It gave 93% for remaining binding (MAP kinase-activated protein kinase 5 (MAPKAPK5, Homo sapiens, UniProt Q8IW41); cell-free assay, competition with immobilised ligand).

Study 2
Host: human
Matrix: microsomes or S9
Tested at: 2 µM
Time: 0.5 h
For `OC1CCOc2c(NCCc3ccccc3F)cccc21` (stereo not drawn), the remaining compound was 46.4%.
`CCc1nc(NCCCn2ccnc2)c2c3c(sc2n1)CCCC3` has a remaining compound of 73.7%.
For `CC(C)CCCC(C)NC(=O)C1CCN(c2nc(Cl)nc3[nH]cnc23)CC1` (stereo not drawn), the remaining compound was 2.54%.
`COc1ccc2cc(C(=O)OCc3ccc(-n4nc(C)cc4C)cc3)[nH]c2c1` gave a remaining compound of 4.37%.
The remaining compound of `CN/C(=N/c1cc(C)nn1-c1ccccc1)c1ccc(F)cc1` is reported as 28.9%.
`O=C(O)CCCCC/N=C1\CCc2ccccc2N1` gave a remaining compound of greater than 99.9%.
`Brc1ccc(C2CC(c3ccc(Br)cc3)n3ncnc3N2)cc1` (stereo not drawn) gave a remaining compound of 59.5%.
With `NCC1=CCCN(c2nc3c(cc2F)c(=O)c(C(=O)O)cn3-c2ncc(F)cc2Cl)C1` the remaining compound was 45%.
The remaining compound of `CNC1=C(c2cccc(C)n2)C(=O)C(c2ccc(Cl)cc2Cl)O1` (stereo not drawn) is reported as 4.34%.

Study 3
Compound: CCc1[nH]c(-c2ccc(OC)cc2)nc1-c1ccncc1
Effect on: enzyme activity
Action: inhibitor
Tested at: 0.5 µM
Reference: control
It gave 96% for remaining activity (3-phosphoinositide-dependent protein kinase 1 (PDPK1, Homo sapiens, UniProt O15530)).
The remaining activity was 105% (Tyrosine-protein kinase Blk (BLK, Homo sapiens, UniProt P51451)).
It gave 107% for remaining activity (Ribosomal protein S6 kinase alpha-5 (RPS6KA5, Homo sapiens, UniProt O75582)).
The remaining activity was 105% (Ephrin type-A receptor 4 (EPHA4, Homo sapiens, UniProt P54764)).
For Cyclin-dependent kinase 4, with cyclin D3 (CDK4, Homo sapiens, UniProt P11802): remaining activity read 105%.

Further values, each from its own experiment
With `CC(C)[C@@H]1CC[C@@H](C)C[C@H]1O` the viability was 134% (HaCaT; 100 µM, 60 h).

A few entries again (study 1):
The remaining binding was 100% (Myotonin-protein kinase (DMPK, Homo sapiens, UniProt Q09013); cell-free assay, competition with immobilised ligand).
It gave 100% for remaining binding (Mitogen-activated protein kinase kinase kinase 13 (MAP3K13, Homo sapiens, UniProt O43283); cell-free assay, competition with immobilised ligand).
For Serine/threonine-protein kinase PRP4 homolog (PRPF4B, Homo sapiens, UniProt Q13523); cell-free assay, competition with immobilised ligand: remaining binding read 100%.
For Serine/threonine-protein kinase SBK1 (SBK1, Homo sapiens, UniProt Q52WX2); cell-free assay, competition with immobilised ligand: remaining binding read 99%.
